Results from different studies.
Each numbered part is a random draw from the data of one study; scales do not carry over between parts. “And” joins repeats or separate records; there may be more than shown.
UniProt P00519, sequence (whole entry, unmodified, looked up): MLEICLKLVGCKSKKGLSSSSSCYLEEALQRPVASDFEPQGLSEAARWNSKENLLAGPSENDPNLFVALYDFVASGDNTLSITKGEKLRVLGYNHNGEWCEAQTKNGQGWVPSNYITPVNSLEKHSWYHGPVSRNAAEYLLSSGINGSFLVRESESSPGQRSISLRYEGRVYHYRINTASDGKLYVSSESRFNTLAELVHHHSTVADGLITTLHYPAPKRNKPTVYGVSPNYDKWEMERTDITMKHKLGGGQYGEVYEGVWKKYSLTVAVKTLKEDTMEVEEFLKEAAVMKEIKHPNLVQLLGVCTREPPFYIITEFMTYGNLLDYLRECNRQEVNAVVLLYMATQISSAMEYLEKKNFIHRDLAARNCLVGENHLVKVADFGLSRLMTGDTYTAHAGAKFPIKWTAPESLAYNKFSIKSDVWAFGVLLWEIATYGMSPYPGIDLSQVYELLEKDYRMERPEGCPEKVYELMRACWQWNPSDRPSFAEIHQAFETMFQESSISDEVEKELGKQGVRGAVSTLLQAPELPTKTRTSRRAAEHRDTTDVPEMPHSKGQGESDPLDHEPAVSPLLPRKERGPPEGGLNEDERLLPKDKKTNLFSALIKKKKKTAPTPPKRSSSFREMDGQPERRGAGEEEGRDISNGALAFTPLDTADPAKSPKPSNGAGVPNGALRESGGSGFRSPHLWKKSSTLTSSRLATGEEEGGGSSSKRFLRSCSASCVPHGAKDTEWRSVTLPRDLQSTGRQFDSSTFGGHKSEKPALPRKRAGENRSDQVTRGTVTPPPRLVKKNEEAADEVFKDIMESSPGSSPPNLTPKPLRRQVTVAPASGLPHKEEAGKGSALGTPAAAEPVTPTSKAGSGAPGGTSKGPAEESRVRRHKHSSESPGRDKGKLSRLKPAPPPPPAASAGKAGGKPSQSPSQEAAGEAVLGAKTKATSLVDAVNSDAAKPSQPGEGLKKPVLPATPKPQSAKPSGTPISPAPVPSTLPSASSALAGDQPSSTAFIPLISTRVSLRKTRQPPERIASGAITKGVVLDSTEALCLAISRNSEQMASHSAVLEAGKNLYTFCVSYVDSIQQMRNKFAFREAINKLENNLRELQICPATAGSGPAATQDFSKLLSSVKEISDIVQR

Set 1
Cell line: mouse MPNST tumor cells
Method: high-content nuclear imaging
Item: cell number
Concentration: 10 µM
Time: 12 h
Notes: mean of 2 replicates
Baseline: plate mean
Reading: higher = more cells
Quantity: nuclei count
CC1=C(C(=O)Nc2cc(Cl)ccc2Cl)C(c2ccco2)C2=C(CCCC2=O)N1 (centres unmarked): 1.22 z-score
C#C[C@]1(O)CC[C@H]2[C@@H]3CCC4=Cc5oncc5C[C@]4(C)[C@H]3CC[C@@]21C: 4.25 z-score
NN1CCOC1=O: -0.657 z-score
CN(C)CCCSC(=N)N: -0.0414 z-score
COc1ccc(CC(=O)NC(/N=C(\NC#N)Nc2cccc3ncccc23)C(C)(C)C)cc1OC (centres unmarked): 0.425 z-score

Set 2
Structure (SMILES): CO[C@@H]1[C@@H](OC(N)=O)[C@@H](O)[C@H](Oc2ccc3c(O)c(NC(=O)c4ccc(O)c(CC=C(C)C)c4)c(=O)oc3c2C)OC1(C)C
Quantity: viability
RPE-1 BRCA1-/- PARPi-resistant R4; CellTiter-Glo; 200 µM, 6 d: 47.1%
MDA-MB-436 (BRCA1-mutant); CellTiter-Glo; 50 µM, 6 days; baseline: untreated: 28.5% and 38.9% and 41.6% and 27.8% and 35.6%
RPE-1 wild type; CellTiter-Glo; 150 µM, 6 days; baseline: untreated: 104% and 109%
RPE-1; cell growth or viability, ATP luminescence; 25 µM, 6 days: 100%
UWB1.289 parental; CellTiter-Glo; 25 µM, 6 days; baseline: untreated: 73.5%

Set 3
Species: mouse
Sample: microsomes or S9
Concentration: 2 µM
Time: 0.5 h
Quantity: remaining compound
COc1ccc(CNC(=O)c2oc3ccc4c(c3c2C)C=CC(C)(C)O4)cc1OC: 25.2%
CSc1cccc(NC(=O)N2Cc3c(sc4c3CCCC4)-n3cccc3C2C)c1 (centres unmarked): 14.4%
O=C(Nc1n[nH]c2cc(Br)ccc12)c1cc(-c2cccnc2)[nH]n1: 47%
Cc1cc(O)c(C(c2ccco2)c2c(O)cc(C)n(C)c2=O)c(=O)n1C: 30.6%
CC(C)n1cc(S(=O)(=O)N2CC(C(=O)O)c3ccccc32)cn1 (centres unmarked): 81.8%
Cc1cc(C)n(-c2nc(CCNC(=O)CCn3ccc(=O)[nH]c3=O)cs2)n1: 57.8%

Single results of other studies
CNC(=O)Nc1ccc2c(c1)CC[C@]21OC(=O)N(CC(=O)N(Cc2ccc(F)cc2)[C@@H](C)C(F)(F)F)C1=O  remaining binding (Tyrosine-protein kinase ABL1 (ABL1, Homo sapiens, UniProt P00519, F317I); KINOMEscan; 1 µM, F317I mutant, nonphosphorylated; baseline: control): 71%

Excerpt of the above (set 3):
COc1ccc(CNC(=O)c2oc3ccc4c(c3c2C)C=CC(C)(C)O4)cc1OC: 25.2%
